{"data": "Measurements gathered from unrelated publications", "note": "Parts stem from different laboratories: compare values within a part only. Changes are numbered by the printed parent chain."}
{"data": "Set 1", "target": "CRIPT, C-terminal peptide", "method": "DHFR complementation, deep sequencing", "matrix": "yeast", "notes": "single substitutions, model-inferred values", "relative to": "wild type", "reading": "higher = weaker binding", "parent": "ERBIN, PDZ domain 1 (human); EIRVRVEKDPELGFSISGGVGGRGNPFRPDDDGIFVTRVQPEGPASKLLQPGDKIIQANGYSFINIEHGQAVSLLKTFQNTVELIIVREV; partner TKNYKQTSV"}
{"Substitution": "Q50C", "binding free energy change": "0.0422 kcal/mol"}
{"Substitution": "I34D", "binding free energy change": "0.222 kcal/mol"}
{"Substitution": "G60K", "binding free energy change": "0.128 kcal/mol"}
{"Substitution": "A58N", "binding free energy change": "1.86 kcal/mol"}
{"Substitution": "E1K", "binding free energy change": "0.0411 kcal/mol"}
{"Substitution": "P51M", "binding free energy change": "0.241 kcal/mol"}
{"Substitution": "N25Y", "binding free energy change": "0.755 kcal/mol"}
{"Substitution": "V82S", "binding free energy change": "0.635 kcal/mol"}
{"data": "Set 2", "target": "POU, POU domain (Salpingoeca helianthica)", "method": "Spec-seq", "molecule type": "double-stranded DNA, one strand shown", "matrix": "in vitro", "tested at": "not given", "notes": "whole probe, mean of replicates", "relative to": "not given", "reading": "lower = stronger binding", "all sequences stand within": "GAGTCGTCTCGTCAGCAC … CCGTAGAGCACTCAGGTC", "Construct (chain)": "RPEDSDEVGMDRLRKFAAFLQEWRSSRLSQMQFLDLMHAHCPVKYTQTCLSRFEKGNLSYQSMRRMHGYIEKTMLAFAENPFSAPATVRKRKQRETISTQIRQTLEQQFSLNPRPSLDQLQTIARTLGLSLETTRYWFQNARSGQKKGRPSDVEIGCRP"}
{"Sequence": "AAGATAAT", "relative binding energy [ln ratio]": 0.156}
{"Sequence": "ATAGTAAT", "relative binding energy [ln ratio]": 0.511}
{"Sequence": "ATAGGGAT", "relative binding energy [ln ratio]": 1.33}
{"Sequence": "ATGCTTTC", "relative binding energy [ln ratio]": 1.22}
{"Sequence": "TTCATAAT", "relative binding energy [ln ratio]": 0.401}
{"Sequence": "CATCTAAT", "relative binding energy [ln ratio]": 0.356}
{"Sequence": "GACATAAT", "relative binding energy [ln ratio]": 0.99}
{"Sequence": "ATAAGTAT", "relative binding energy [ln ratio]": 0.673}
{"data": "Set 3", "target": "PABPC1L2, full length, GST fusion (mouse, UniProt A0ABA7IW68)", "method": "RNAcompete", "molecule type": "RNA", "matrix": "in vitro", "tested at": "20 nM", "notes": "7-mer, probes averaged, single round", "relative to": "mean of 7-mers", "reading": "higher = stronger binding", "Construct (chain)": "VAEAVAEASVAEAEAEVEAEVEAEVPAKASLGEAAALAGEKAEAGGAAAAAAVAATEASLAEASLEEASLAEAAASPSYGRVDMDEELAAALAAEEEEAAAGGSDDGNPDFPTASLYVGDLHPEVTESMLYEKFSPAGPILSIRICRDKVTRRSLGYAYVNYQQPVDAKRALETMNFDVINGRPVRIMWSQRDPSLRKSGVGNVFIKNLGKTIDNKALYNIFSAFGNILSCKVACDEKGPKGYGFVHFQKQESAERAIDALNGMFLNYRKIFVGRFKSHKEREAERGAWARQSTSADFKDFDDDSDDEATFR"}
{"Sequence": "AUACUUA", "7-mer Z-score": -0.121}
{"Sequence": "GUCCACG", "7-mer Z-score": -0.215}
{"Sequence": "GAAUGGC", "7-mer Z-score": -0.00652}
{"Sequence": "AGCUAAU", "7-mer Z-score": -0.148}
{"Sequence": "GUUCGUA", "7-mer Z-score": -0.398}
{"Sequence": "UGCACGA", "7-mer Z-score": -0.104}
{"Sequence": "CUCGAUU", "7-mer Z-score": -0.307}
{"Sequence": "AGGCGUC", "7-mer Z-score": -0.186}
{"data": "Other studies, line by line"}
{"SMILES": "COc1ccc2cc(C(=O)OCc3ccc(-n4nc(C)cc4C)cc3)[nH]c2c1", "system": "mouse, microsomes or S9", "setting": "2 µM, 0.5 h", "endpoint": "remaining compound", "result": "4.01%"}
{"note": "Repeated from above (set 1):"}
{"Substitution": "N25Y", "binding free energy change": "0.755 kcal/mol"}
{"Substitution": "P51M", "binding free energy change": "0.241 kcal/mol"}
{"Substitution": "I34D", "binding free energy change": "0.222 kcal/mol"}
